# Results from different studies.
# Each numbered part is a random draw from the data of one study; scales do not carry over between parts.

# Series 1 — method: protein-binding microarray; molecule type: double-stranded DNA, one strand shown; matrix: in vitro; concentration: not given; reading: higher = stronger binding
# Target: Transcription factor SOX-2, HMG box (SOX2, Homo sapiens, UniProt P48431, residues 19-118)
# Sequence of UniProt P48431 (19-118, looked up): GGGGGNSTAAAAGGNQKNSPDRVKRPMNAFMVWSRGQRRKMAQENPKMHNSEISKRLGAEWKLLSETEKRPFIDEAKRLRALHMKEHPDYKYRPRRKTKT
# Setting: k-mer, scored over probes, only values ≥0.25
Sequence,E-score
ATAGAAT,0.345
CACAATG,0.444
AATAAAA,0.315
ATAAAAT,0.264
AATTGCC,0.294
ATTTAAA,0.266
AAAAGAA,0.266
CTGAATA,0.309
ATAATAC,0.365
AAAAGCT,0.328
AATTAAG,0.286
ACAATAG,0.458
AATTGAG,0.303
AATTTTG,0.26
ATCACAA,0.264
ATATTCA,0.347
CAATTCA,0.462
GAATGCA,0.343
AATAATT,0.456
ATTGTCA,0.413
TAAACAA,0.316
AATTACA,0.386

# Series 2 — method: protein binding microarray; molecule type: double-stranded DNA, one strand shown; matrix: in vitro; concentration: not given; relative to: not given; reading: higher = stronger binding
# Target: Histone acetyltransferase KAT6A, both winged helices, GST fusion (KAT6A, Homo sapiens, UniProt Q92794, residues 1-181)
# Setting: 8-mer, flanks averaged, mean of 2 arrays, mostly near background
# Residues (chain): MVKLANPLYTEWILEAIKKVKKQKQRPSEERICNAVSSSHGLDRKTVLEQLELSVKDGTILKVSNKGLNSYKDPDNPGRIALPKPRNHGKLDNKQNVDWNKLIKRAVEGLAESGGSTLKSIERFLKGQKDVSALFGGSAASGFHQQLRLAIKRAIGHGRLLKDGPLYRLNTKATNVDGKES
Sequence,E-score
AGACGTAC,-0.0197
ACATATGG,-0.135
TAGGAGCA,-0.195
CACATCCG,0.105
ATTCCACC,-0.145
AAAGGTAT,0.0892
CACTCAGC,-0.0804
ACTTTGCT,-0.0382
AGCGCGAG,0.255
ACATGATA,-0.0368
AGGTACCA,-0.196
CAAGTGAC,-0.0584
ACCTAAAA,-0.0456
CGCTACAA,0.0903
ATTTTGAA,-0.0422
ATTAGCAC,-0.0264
ACGTACAC,-0.114
ACTGTACG,0.00847
GCGATTAC,0.0746

# Series 3 — method: RNA Bind-n-Seq; molecule type: RNA; matrix: in vitro; concentration: 365 nM; relative to: no-protein control; reading: higher = stronger binding
# Target: RNA binding protein fox-1 homolog 2, RRM domain, GST-SBP tag (RBFOX2, Homo sapiens, UniProt O43251-10, residues 100-194)
# Setting: natural RNA segment, single round, ends assumed
# Construct (chain): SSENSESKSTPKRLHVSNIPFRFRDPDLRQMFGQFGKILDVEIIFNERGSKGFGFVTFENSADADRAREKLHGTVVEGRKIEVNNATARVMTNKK
Sequence,RBNS enrichment (R)
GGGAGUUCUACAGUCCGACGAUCUGCCUUCCUUCCUCCCACUUCUUUCUCCAGGCCUGGUUAACUCUUCCGUUGUCAGCUUCUCCCCCUUCAGCCUGUUUCUGCAGCAGCCAGGGUUCUCCCCCCUACACCCUUGGAAUUCUCGGGUGCCAA,0.819
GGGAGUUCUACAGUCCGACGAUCUCAUUAAUGAUGGUGGAAGCAAGUGUAUUAUUUGUUUCCUGGAGAAUUUGAUGAAGAGCAGUCUUCCUCUGCUGCCCUUUACUAAGCAAAACCUGGAGCAAUUUAAAUAGUGGAAUUCUCGGGUGCCAA,0.445
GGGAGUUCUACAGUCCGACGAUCCCCUCUCACCCCAAAUGUGUAAUGGAAAAUUUUUAAUUAAGAAAAACUUCAGUUUUGCCAAGUGCAAUGGUGUUGCCUUCUUUAAAAAAUGCCGUUUUCUUACACUACCAUGGAAUUCUCGGGUGCCAA,0.624
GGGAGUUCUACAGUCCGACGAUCCUCCACUCGACCCAGAAUGGAGCCUGCUCUCCGCGCCUACCCUUCCCGCCUCCCUCUCAGAGGCCUGCUGCCAGUGCAGCCACUGGCUUGGAACACCUUGGGGUCCCUCCUGGAAUUCUCGGGUGCCAA,0.29
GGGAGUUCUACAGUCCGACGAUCCAAAAAUGAUGCCUUUCUGUAGGCUGGUGUUGUUGCCUCCCUCCCAGGAUCCCUUUGGUGAGUAUGGUGUUCAGGAUGCACCACCACCACCUCUAGAUACCUUCAGGCAAUGGAAUUCUCGGGUGCCAA,0.446
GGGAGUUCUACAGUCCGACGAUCACACACAAGAGUUUACAGAUUAGUUUAAAUUGAUAAUGAAAUGUGAAGUUUGUCCUAGUUUACAUCUUAGAGAGGGGAGUAUACUUGUGUUUGUUUCAUGUGCCUGAAUAUGGAAUUCUCGGGUGCCAA,0.758
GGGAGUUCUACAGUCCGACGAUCUGAAGUGAUAAAGAAUAUUAUUAGAAUAAAAUGUUUGUAUAUGUAUUUGUGUAUUAAAGAUGUAUUGAGUAAUUUUGUAUUUUUUACAUAUAAAUGUGCUAAAUUACUCUUGGAAUUCUCGGGUGCCAA,0.844
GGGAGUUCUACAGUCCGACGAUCGCCCUAAACACCUUGUAGUUGCUGAAGACAACUCAAGAGCAUCUAAGGGGAGUAUCUCUCACGACCCUAAAUUCUGCCUCCAGCUGUGCCCAGUGAAAGACCUCAAGUCUUGGAAUUCUCGGGUGCCAA,0.293
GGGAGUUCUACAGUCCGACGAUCGCAUGUAUUAUUUCUCCCAUGUAAGGACAAAGGGACAGAUUAUUAUUGUUAUUUCUGAGACAGAGUCUUGCUCUGUAGCUCAGGCUGGAGUGCAGUGGCUCAAUCUCAGCUGGAAUUCUCGGGUGCCAA,4.72
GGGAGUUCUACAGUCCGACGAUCCAAACUCUGUUUUAAGGUUGAGAAAGUUUCAAGGGUGAAGAUCUCAAAACAGUGCUAAAAUCAAAGGUGUUUGCUGUGAAGAAAAACAUGUGUAUAUAUUGCACCUUGAGUGGAAUUCUCGGGUGCCAA,1.22
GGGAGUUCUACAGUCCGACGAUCCAGGUGGGGUGGGGAGUGAUGGCUGUCCUCCUCUGUCGGCCUUUUAAUGACCGUUCUGUGUCCCAUGUAUGUCUCUGACCAUCCACAGCCGCCCCUCCUCCAUACCCCAGUGGAAUUCUCGGGUGCCAA,0.917
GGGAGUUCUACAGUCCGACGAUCAAUGAGGACUGACCAUAGUUCUUGUGACUGAGUGUGCUGGCACUGGUGAGCCCAGCCAGCCUGUGCUGAACAGAGGCUUUUCAGGAAGUGCACCACACACACACACACACUGGAAUUCUCGGGUGCCAA,0.254

# Series 4 — method: universal PBM; molecule type: double-stranded DNA, one strand shown; matrix: in vitro; concentration: 600 nM; reading: higher = stronger binding
# Target: Sal-like protein 4, full length isoform A (SALL4, Homo sapiens, UniProt Q9UJQ4, residues 1-1053)
# Sequence of UniProt Q9UJQ4 (whole entry, looked up): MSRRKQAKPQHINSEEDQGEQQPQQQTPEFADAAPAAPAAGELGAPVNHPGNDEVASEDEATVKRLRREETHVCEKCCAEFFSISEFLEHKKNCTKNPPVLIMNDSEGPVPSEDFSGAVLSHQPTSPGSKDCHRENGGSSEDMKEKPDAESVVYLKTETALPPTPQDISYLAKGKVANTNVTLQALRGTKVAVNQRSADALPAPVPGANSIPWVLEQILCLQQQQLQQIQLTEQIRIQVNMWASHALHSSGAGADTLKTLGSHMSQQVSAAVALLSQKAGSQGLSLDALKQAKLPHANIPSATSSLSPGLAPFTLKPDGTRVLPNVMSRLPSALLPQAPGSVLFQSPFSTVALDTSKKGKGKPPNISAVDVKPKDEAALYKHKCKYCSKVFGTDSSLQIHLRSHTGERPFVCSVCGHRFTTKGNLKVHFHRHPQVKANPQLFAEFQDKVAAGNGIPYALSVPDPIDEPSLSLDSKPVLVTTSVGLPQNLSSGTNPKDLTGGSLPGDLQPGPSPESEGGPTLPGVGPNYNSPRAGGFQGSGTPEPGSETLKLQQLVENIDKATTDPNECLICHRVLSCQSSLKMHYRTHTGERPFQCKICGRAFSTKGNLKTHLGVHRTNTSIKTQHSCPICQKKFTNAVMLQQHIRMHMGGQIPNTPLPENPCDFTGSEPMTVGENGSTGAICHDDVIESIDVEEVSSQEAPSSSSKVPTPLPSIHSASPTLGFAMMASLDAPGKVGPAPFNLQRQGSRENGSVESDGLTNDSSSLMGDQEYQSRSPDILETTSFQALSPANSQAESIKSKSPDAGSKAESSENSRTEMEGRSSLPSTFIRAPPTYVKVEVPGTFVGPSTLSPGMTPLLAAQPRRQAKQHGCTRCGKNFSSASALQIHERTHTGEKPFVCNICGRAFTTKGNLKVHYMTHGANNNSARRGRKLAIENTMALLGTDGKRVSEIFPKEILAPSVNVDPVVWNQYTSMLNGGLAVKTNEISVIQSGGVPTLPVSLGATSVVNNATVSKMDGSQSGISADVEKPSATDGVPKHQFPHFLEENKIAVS
# Setting: 8-mer, flanks averaged, mean of replicates
Sequence,E-score
GAGCGGTA,-0.00807
CTTGTTCC,0.0483
CTACCCCC,-0.224
GATTTGCC,-0.0564
ATTCCTAG,0.161
GACCAGAA,-0.0772
GCAGGCAC,-0.276
AAGTATTG,0.22
AGGACTAT,0.0531
GACTCCTC,-0.0741
AGACTAAA,0.102
CGCAACAA,0.052
CTCAATTA,0.236
GGGCATAC,-0.0773
ATACGTGC,0.0365
TCGATGCA,-0.00148
CGCAAACG,-0.0595
AATGGCAT,0.143
GTTAGTAA,0.186
AGCTGGAA,-0.098

# Series 5 — method: competition protein-binding microarray; molecule type: double-stranded DNA, one strand shown; matrix: in vitro; concentration: 2 µM; added: Pho4 competitor, 0.05 µM; reading: higher = stronger binding
# Target: Centromere-binding protein 1, full length, His-tagged (CBF1, Saccharomyces cerevisiae, UniProt P17106, residues 1-351)
# Sequence of UniProt P17106 (whole entry, looked up): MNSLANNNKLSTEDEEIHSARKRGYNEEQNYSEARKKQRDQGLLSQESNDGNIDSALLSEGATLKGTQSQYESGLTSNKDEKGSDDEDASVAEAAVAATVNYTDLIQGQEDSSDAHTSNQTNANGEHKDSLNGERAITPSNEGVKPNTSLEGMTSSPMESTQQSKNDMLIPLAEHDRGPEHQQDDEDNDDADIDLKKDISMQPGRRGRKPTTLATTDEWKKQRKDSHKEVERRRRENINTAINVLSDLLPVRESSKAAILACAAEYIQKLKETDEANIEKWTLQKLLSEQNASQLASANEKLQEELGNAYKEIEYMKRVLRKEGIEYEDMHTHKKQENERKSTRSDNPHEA
# Setting: whole 60-bp probe, lowest competitor level
Sequence,fluorescence intensity [a.u.]
TGCGCAACAACTTGAACAGTGGGTGTATGTCTAGAAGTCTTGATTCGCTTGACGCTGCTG,69.4
CTTTCCCGATCTTGTACTGTGGGTGTAGCACATTTGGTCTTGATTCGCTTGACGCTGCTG,63
CTTCTGTAAATTTGCTAGGTGGGTGGACGCGCCCCGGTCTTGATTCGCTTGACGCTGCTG,86.8
CTAACGAAGGTTTGGGCGGTGGGTGACAAGCCAAGTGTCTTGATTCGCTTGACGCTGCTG,60.5
CGTCCTAGTGATTGTCGTGTGGGTGCCATGAGGAAGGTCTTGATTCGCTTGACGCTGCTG,94.7
CTTTCCCGATCTTGTGGCGTGGGTGTAGCACATTTGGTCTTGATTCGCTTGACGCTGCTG,65.5
GGCAAAAGCTTACTTTCCGTGCCGAAGGTGTTGTTAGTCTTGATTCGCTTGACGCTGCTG,71.8
TGTTATTAACGTACCCACGCACAGTGGTGCTATCCAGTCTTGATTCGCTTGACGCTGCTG,56.3
TCCCTGGGTCCCGGCCACGTGTAACGCTTCAACAACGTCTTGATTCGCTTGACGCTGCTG,720
CGACACCGATAGCGTCATGTGTAGCAACCCAAATAAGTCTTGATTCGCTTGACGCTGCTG,146
CAAGTTTGTTTGCTTTTCGTGCAAAATATTAAATAGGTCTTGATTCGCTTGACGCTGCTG,92.6
TTCCAACTGTTTTTGCACGCAAATTCGTCCAACCGGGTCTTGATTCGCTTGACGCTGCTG,72.4
CGTCCTAGTGATTGTCAGGTGGGTGCCATGAGGAAGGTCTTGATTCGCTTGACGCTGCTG,166
AGGACGACTGCTTTACTCGTGAAAATGGAACACAAGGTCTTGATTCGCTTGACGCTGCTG,108
AGGTTTCCTTACTGGCACGTGCGGACCAAGCTCTACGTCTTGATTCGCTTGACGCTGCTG,1150
CATCTAAAAGCATTACGCATGCCCTATAACTGGTAAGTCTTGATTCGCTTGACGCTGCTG,93.4
CTACAATTTCCACTCCACGTGAATTTTTTCTCGGAAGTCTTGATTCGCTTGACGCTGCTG,1040
CCAACAAACCTTTCACACGTGGTCGGATTCAAGTTCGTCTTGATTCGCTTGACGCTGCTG,1090
TCTCGTAAAATCCTGCGCATGTTAAATAGCCGCCGAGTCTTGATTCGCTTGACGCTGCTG,80.3
TCATGGCCTCATCGGCACGTTTACTGAAGACGACGCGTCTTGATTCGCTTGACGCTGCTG,79.6
TCCAGGTTGCCCTGCAAGGTGACAGGGTTCTTGTTTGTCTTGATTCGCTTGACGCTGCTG,51.2
CTTCTGTAAATTTTTCACGTGACCTGACGCGCCCCGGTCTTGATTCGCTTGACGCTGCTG,6900
TAACGACTGGCACCACCCGTGATGGAGAAGAACACAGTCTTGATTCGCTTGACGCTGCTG,112
GTCTTGTCTCATTGTTCCGTGGGTGTCCCCACTTCAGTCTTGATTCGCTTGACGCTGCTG,84.9
GGCCTCAAGGCATTACACGTTACGATTTTCCAACTGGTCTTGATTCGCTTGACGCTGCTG,78.2
